Published values gathered from unrelated publications.
Protocols differ between the studies behind these lines. pIC50: −log10 of the molar value.
Target: Prostaglandin G/H synthase 1 (PTGS1, Ovis aries, UniProt P05979)
Chain of UniProt P05979 (whole entry, looked up): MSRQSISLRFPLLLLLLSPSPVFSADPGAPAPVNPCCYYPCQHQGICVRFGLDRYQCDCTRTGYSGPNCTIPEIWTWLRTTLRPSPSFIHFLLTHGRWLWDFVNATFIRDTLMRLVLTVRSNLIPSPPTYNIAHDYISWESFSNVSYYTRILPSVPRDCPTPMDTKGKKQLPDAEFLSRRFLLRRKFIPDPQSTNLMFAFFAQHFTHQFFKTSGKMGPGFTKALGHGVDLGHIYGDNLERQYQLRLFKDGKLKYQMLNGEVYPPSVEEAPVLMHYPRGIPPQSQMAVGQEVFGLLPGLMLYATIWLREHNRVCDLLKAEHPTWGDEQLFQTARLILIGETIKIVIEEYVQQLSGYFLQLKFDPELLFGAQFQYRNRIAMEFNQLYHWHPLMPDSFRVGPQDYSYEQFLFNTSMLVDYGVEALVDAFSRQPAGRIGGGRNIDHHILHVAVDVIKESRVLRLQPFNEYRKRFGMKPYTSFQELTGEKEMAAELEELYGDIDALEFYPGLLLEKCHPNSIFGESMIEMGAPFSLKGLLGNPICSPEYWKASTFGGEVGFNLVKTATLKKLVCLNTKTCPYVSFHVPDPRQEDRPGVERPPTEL

With Fc1ccc(/N=c2\oc3ccccc3cc2-c2ccccc2)cc1 the pIC50 was 7.93 (enzyme activity, inhibitor).
With O=c1[nH]c(=S)[nH]c2c1C(c1cc(/N=N/c3ccc(F)c(Cl)c3)ccc1O)c1c([nH]c(=S)[nH]c1=O)N2 the pIC50 was 4.98 (enzyme activity, inhibitor, ELISA).
The pIC50 of Fc1cc(Cl)c(Nc2ccccc2Cc2nnn[nH]2)c(Cl)c1 is reported as less than 4.00 (enzyme activity, inhibitor, fluorescence).
The pIC50 of Cc1cccc(/N=N/c2ccc(O)c(C3c4c([nH]c(=S)[nH]c4=O)Nc4[nH]c(=S)[nH]c(=O)c43)c2)c1 is reported as 5.10 (enzyme activity, inhibitor, ELISA).
CCNC(=O)NC(=O)COC(=O)c1cn(-c2ccccc2)nc1-c1ccc(C)cc1C gave a pIC50 of 5.07 (enzyme activity, inhibitor, absorbance).
For C(=C\c1ccccc1)/N=c1\oc2ccccc2cc1-c1ccccc1, the pIC50 was 7.82 (enzyme activity, inhibitor).
For O=C(O)Cc1cc(F)ccc1Nc1c(Cl)cccc1Cl, the pIC50 was 6.32 (enzyme activity, inhibitor, fluorescence).
For COc1cc(O)ccc1CCC(c1ccc(O)cc1)c1cc2c(c(C)c1O)OC(c1ccc(O)cc1)CC2 (mixture of isomers), the pIC50 was less than 5.00 (enzyme activity, purified enzyme).
With CN(C(=O)c1ccn2ncc(-c3ccc(C(N)=O)cc3)c2c1)c1ccc(C#N)cn1 the pIC50 was less than 4.52 (cell-free assay, inhibitor).
With O=C(NCc1ccccc1)/C(=C/c1cn(-c2ccccc2)nc1-c1ccccc1)NC(=O)c1ccc(Cl)cc1Cl the pIC50 was 5.03 (enzyme activity, inhibitor, absorbance).
c1ccc(-c2cc3ccccc3o/c2=N\c2cccnc2)cc1 has a pIC50 of 8.01 (enzyme activity, inhibitor).
With O=c1[nH]c(=S)[nH]c2c1C(c1cc(/N=N/c3cc(Cl)cc(Cl)c3)ccc1O)c1c([nH]c(=S)[nH]c1=O)N2 the pIC50 was 5.12 (enzyme activity, inhibitor, ELISA).
With Clc1cccc(Cl)c1Nc1ccccc1Cc1nnn[nH]1 the pIC50 was less than 4.00 (enzyme activity, inhibitor, fluorescence).
For Fc1ccc(/C=C/N=c2\oc3ccccc3cc2-c2ccccc2)cc1, the pIC50 was 7.94 (enzyme activity, inhibitor).

Some of these lines once more:
With O=c1[nH]c(=S)[nH]c2c1C(c1cc(/N=N/c3ccc(F)c(Cl)c3)ccc1O)c1c([nH]c(=S)[nH]c1=O)N2 the pIC50 was 4.98 (enzyme activity, inhibitor, ELISA).
